Published values pooled from the literature.
Each numbered part is a random draw from the data of one study; scales do not carry over between parts.

Block 1 — method: universal PBM; form: double-stranded DNA, one strand shown; sample: in vitro; concentration: not given; reading: higher = stronger binding
Target: Sal-like protein 4, full length isoform B (SALL4, Homo sapiens, UniProt Q9UJQ4-2, residues 1-616)
Setting: 8-mer, flanks averaged, mean of replicates
Construct (chain): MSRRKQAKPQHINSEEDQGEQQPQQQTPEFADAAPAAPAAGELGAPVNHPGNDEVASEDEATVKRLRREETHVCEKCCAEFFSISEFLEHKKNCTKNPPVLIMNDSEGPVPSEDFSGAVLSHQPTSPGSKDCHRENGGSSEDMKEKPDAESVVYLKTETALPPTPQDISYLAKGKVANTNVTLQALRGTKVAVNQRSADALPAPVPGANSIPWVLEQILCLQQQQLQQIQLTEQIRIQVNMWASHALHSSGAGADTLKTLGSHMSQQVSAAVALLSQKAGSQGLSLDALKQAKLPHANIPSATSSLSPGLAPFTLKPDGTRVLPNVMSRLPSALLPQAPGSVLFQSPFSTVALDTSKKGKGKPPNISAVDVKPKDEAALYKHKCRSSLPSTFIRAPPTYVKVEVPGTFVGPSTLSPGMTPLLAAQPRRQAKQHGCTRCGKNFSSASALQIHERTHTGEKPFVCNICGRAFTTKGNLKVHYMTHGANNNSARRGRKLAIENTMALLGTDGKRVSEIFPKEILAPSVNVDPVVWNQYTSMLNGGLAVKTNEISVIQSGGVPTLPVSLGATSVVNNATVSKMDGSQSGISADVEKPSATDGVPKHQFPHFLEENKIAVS
With `AACAATTA` the E-score was 0.357.
With `CAATGTAG` the E-score was 0.0084.
`CTTTCGTA` gave an E-score of 0.112.
`CCCATCTA` gave an E-score of 0.0689.
`AGCCTAGA` gave an E-score of -0.0669.
`ACAGGCAC` gave an E-score of -0.193.
The E-score of `AAATGACG` is reported as 0.174.
The E-score of `CGGAGGCC` is reported as -0.415.
The E-score of `GGTTGTAA` is reported as 0.19.
For `AAGCTTTC`, the E-score was -0.0679.
`TCAGGGGA` gave an E-score of -0.0824.
With `CTAATTCA` the E-score was 0.258.
With `CACTAATC` the E-score was 0.0778.
The E-score of `CCATCTGC` is reported as -0.0242.
The E-score of `GGATGAGA` is reported as 0.0213.
The E-score of `CTCCGGTC` is reported as -0.366.
For `GCTAGCAA`, the E-score was -0.00374.
With `AAGCTGCA` the E-score was -0.019.
With `ACCAGGTA` the E-score was -0.134.
`AGAGTGTA` gave an E-score of -0.0563.
The E-score of `CGGCTACA` is reported as -0.108.
`TACCAAAA` gave an E-score of 0.235.
The E-score of `GAATAACC` is reported as 0.104.
With `AAAACACA` the E-score was 0.171.

Block 2 — method: RNA Bind-n-Seq; form: RNA; sample: in vitro; concentration: 365 nM; reference: no-protein control; reading: higher = stronger binding
Target: RNA binding protein fox-1 homolog 2, RRM domain, GST-SBP tag (RBFOX2, Homo sapiens, UniProt O43251-10, residues 100-194)
Setting: natural RNA segment, single round, ends assumed
Constant ends, left off below: GGGAGUUCUACAGUCCGACGAUC … UGGAAUUCUCGGGUGCCAA
Residues (chain): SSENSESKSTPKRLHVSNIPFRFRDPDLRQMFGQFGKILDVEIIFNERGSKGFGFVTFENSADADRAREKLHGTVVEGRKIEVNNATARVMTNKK
For `AGUCGUUUCUAUGUAGCUUGGCAGAGCCCACUGAUGGCUGCAGGUGUGUAGCCUACUGACAGCUUUGGUUAACCCACUGCACAUCACCCAGUCAUUUACCCAACUUACUC`, “RBNS enrichment (R)” read 0.334.
`CAGAGCAGGAAAUCAGACCAAGACCCAGAGCUCUCUGCACCCCGUGCUCAGUUCCCAGGUGGUUGUGUGGGUGUGUGUGCGUGCAUGUGCCCGUCCGGUAAACUAUGGUC`: “RBNS enrichment (R)” 0.644.
`UUUAGAUUCAGGGUGGAUUUUCCCUGCCGUGGAAGAACACAGGCAUCUCCCUAGCUUUCUCACGCUAACCCUGAAGUAUGAUCACUUCUGAACCUGCUCCUUUCUUAACU` — result for “RBNS enrichment (R)”: 0.352.
For `GGGGAGGGUGUUUGGGAAAGAUAAAUAGACAUAAAUAUAUAACAAUCACUUCUUGAAGAAGUAUAAUUGUAAAUAAGCCAUGUAAAAUGCCUUUUUAAAAUUUAAUUUUC`, “RBNS enrichment (R)” read 1.28.
`UAUUAUACUUUUCCUUUUUUAUAUAAUGUCUAACAAAAAAUACAGCUGCAACAUUUUGAUUCCUGUUAAUUUUGUUCUUUAAUUAAAUGACUACUUAUUGCAGGAAAUUA` — result for “RBNS enrichment (R)”: 1.22.
`UCUGGCGGGCUGUCCUCCUUGGUGGGAGCUGUCCUGCACACUGUAGGAUGCUUAAAGGUAUCCCUGGCCUCCACCCACCCCUAGCCAGCAGCUCCCAGUCAGACAACAGC`: “RBNS enrichment (R)” 0.246.
For `CCAACCAUCUGCCAGAGAACUCCUAUGCAUCCCUUAGAACCCUGCUCAGACACCAUUACUUUUGUGAACGCUUCUGCCACAUCUUGUCUUCCCCAAAAUUGAUCACUCCG`, “RBNS enrichment (R)” read 5.02.
`UGCGCAGAACCCACCCCACCCCCCAGUGCAGACUUCGGGGUCUCCACCCCAGGCCAGCAGCGCCCACUGGGCUACAGCAAGCCAACAGGUCACAGAAGCCAACGAGGGGA`: “RBNS enrichment (R)” 0.204.
For `CAGCCAUAGGCAAUGCUUAUUUGGGCAACUCUCACGCCUACAAGAGCAGAGAUGCACAAUAAGCAUUUGUCCAUUUGCUCUUUCCUCAACAGAGGAGAUUAGGAUUUCAA`, “RBNS enrichment (R)” read 0.276.
`ACUGUAGACUCCGGUGUGACCCACCACUGGGGAGUUCACACCUAGAAAGAGAUGGAACUAAACUCUACUAUCAGCUGCUUCAAAAACCUUUUGUCUACGGCCUGGGAAGA` — result for “RBNS enrichment (R)”: 1.
`AUCUGUGCUUUAAGCUAAGGAAAUAUUGCCUGGUGGGUUGGCUGCCUGGUAUUGGGCAUGGAAAUUUGAAUUGCUGAUUGGUAGAUGGUGUGUCUGGACUUAACUCACGU`: “RBNS enrichment (R)” 0.573.
Under “RBNS enrichment (R)”, `UCCCGUUGUAUCCAGAGUUCUUAGAGCUUGUGUCUAAAGGGUAAUUCCCCAACCCUUCCUUAUGAGCAUUUUUAGAACAUUGGCUAAGACUAUUUUCCCCCAGUAGCGCU` is recorded as 0.574.

Block 3 — method: RNA Bind-n-Seq; form: RNA; sample: in vitro; concentration: 200 nM; setting: whole 134-nt RNA, ends assumed; added: 150 mM LiCl; reference: input library; reading: higher = stronger binding; library: 7-deaza-guanosine replaces G
Target: Ras GTPase-activating protein-binding protein 1, full length (G3BP1, Homo sapiens, UniProt Q13283)
Sequence of UniProt Q13283 (whole entry, looked up): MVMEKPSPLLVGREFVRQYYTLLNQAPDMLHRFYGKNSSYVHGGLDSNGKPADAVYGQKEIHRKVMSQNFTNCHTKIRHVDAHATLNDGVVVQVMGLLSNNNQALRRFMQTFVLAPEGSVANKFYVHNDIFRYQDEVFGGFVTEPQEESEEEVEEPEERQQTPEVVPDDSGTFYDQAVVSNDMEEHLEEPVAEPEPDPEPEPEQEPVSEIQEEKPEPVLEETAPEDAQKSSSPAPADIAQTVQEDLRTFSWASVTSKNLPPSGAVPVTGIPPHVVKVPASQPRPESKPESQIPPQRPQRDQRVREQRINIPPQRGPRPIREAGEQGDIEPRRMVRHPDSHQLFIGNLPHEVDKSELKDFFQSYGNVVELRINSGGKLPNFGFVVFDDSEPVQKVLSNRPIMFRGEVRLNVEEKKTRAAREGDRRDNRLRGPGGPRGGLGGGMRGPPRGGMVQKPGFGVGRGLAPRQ
Constant ends, left off below: GGGAGUUCUACAGUCCGACGAUC … UGGAAUUCUCGGGUGUCAAGG
The log2 enrichment of `UCCUGUGCUACACAUCGUAUGUACCGAAUCGGGAAAAAAAGGGUUUGGGUUUUUUUGGGAAAGUAUUAUGUUACGCCGUUCGGAUCUGCA` is reported as -0.765.
For `UAAUUUAGAUCUUAAAGAAAAAGUGGAGCCUGAGGUUCUCAGCACUGAUACCCAAACUUCCCCAGAGCCAGGCACAAGGAUGAACAUUCU`, the log2 enrichment was 1.02.
`CUGUGCUACACAUCGUAUGUACCGAAUCGGGCCCCCCCGGGCCCCCCCGGGCCCCCCCGGGGAAAGUAUUAUGUUACGCCGUUCGGAUCU` has a log2 enrichment of -0.265.
With `CAAGUCCUGUGCUACACAUCGUAUGUACCGAAUCGGUUUGGAAAGGAAAAAAAGGAAAGUAUUAUGUUACGCCGUUCGGAUCUGCACUUC` the log2 enrichment was -0.433.
For `CUCAAGUCCUGUGCUACACAUCGUAUGUACCGAAUCGGCCGGCCGGGGCCGGGGAAAGUAUUAUGUUACGCCGUUCGGAUCUGCACUUCC`, the log2 enrichment was -0.351.
With `UCCUGUGCUACACAUCGUAUGUACCGAAUCGGGAAAAAAAGGGAAAGGGUUUUUUUGGGAAAGUAUUAUGUUACGCCGUUCGGAUCUGCA` the log2 enrichment was -0.728.
`UGUCCUGCAGGGUCGGACCGAUACCUGGAGAGCCGCGAUGCCUCUCGACUGAGUGGCCGGGACCCCUCCUCAUGGACAGUCGAGGAUGUG` gave a log2 enrichment of -3.52.
`CCUGUGCUACACAUCGUAUGUACCGAAUCAAAUUUUUUUAAAUUUUUUUAAAUUUUUAAAAAAGUAUUAUGUUACGCCGUUCGGAUCUGC` has a log2 enrichment of -2.9.
`UCCUGUGCUACACAUCGUAUGUACCGAAUCGGAAAAAAGGGGAAAAAAGGGAAAAAAGGGAAAGUAUUAUGUUACGCCGUUCGGAUCUGC` has a log2 enrichment of -0.115.
For `CUGUGCUACACAUCGUAUGUACCGAAUCGGGGCCCCCCCGGGGCCCCCCCGGCCCCCCCGGAAAGUAUUAUGUUACGCCGUUCGGAUCUG`, the log2 enrichment was 0.636.
For `UUUGCAGGAUUAAUCACUCCUGAAGAUCGGAAAUAUGGAACAACAAAUCUUCACUUAGAUGUAUCUGAUGCAGCUAAUGUCAUGGUCUAU`, the log2 enrichment was -1.86.

Block 4 — method: competition protein-binding microarray; form: double-stranded DNA, one strand shown; sample: in vitro; concentration: 2 µM; added: Pho4 competitor, 0.05 µM; reading: higher = stronger binding; constant ends, left off below: … GTCTTGATTCGCTTGACGCTGCTG
Target: Centromere-binding protein 1, full length, His-tagged (CBF1, Saccharomyces cerevisiae, UniProt P17106, residues 1-351)
Sequence of UniProt P17106 (whole entry, looked up): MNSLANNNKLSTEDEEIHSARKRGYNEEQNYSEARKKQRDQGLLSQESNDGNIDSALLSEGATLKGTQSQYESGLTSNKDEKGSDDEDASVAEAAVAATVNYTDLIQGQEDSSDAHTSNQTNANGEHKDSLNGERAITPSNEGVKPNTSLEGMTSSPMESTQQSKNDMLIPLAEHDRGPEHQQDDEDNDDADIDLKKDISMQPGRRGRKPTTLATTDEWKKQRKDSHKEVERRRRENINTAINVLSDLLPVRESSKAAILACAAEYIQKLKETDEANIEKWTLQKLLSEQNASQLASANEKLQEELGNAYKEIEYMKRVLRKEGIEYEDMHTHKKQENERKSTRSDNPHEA
Setting: whole 60-bp probe, lowest competitor level
`GTCTTGTCTCATTGTGCTGTGGGTGTCCCCACTTCA` has a fluorescence intensity of 73 a.u.
For `GCTATTGGCGCATTCAATGTGTCGCAAATGGGCCCA`, the fluorescence intensity was 68.6 a.u.
`GAAACTCCAAGACGGTACGTGAGATTTTGGAGAAGA` has a fluorescence intensity of 65.4 a.u.
`GTCTTGTCTCATTGCGGTGTGGGTGTCCCCACTTCA` has a fluorescence intensity of 72.3 a.u.
The fluorescence intensity of `AGATGGAGAACCTGGCACGTGTACAAGAGTACAAGG` is reported as 1760 a.u.
For `TAACCTTAATTAATGCCCGTGCCAGGATGATTGCAT`, the fluorescence intensity was 97.7 a.u.
With `CACCAATTCCCAGAGCACATGATGCCTCCACGGAAT` the fluorescence intensity was 347 a.u.
For `CGGGGTTAAGTTTGGAACGTGGGTGGCTTGCAGCAG`, the fluorescence intensity was 69.2 a.u.
The fluorescence intensity of `CGTCCTAGTGATTGGTTTGTGGGTGCCATGAGGAAG` is reported as 84.1 a.u.
With `CTTCTGTAAATTTGGAAAGTGGGTGGACGCGCCCCG` the fluorescence intensity was 69.2 a.u.
With `GACAAGTTACAACTGATCGTGACGGAGAACGGTAAG` the fluorescence intensity was 92.7 a.u.
`GTCTTGTCTCATTGATATGTGGGTGTCCCCACTTCA` has a fluorescence intensity of 87.3 a.u.
For `AAATTACTAAGTTGCCGGGTGGGTGACGCCGTATGA`, the fluorescence intensity was 64.6 a.u.
`AGAAACTTCAACTCACATATGCACTATGGATGCCAA` has a fluorescence intensity of 68.3 a.u.
`AAAGCGGTAATTTGTTATGTGGGTGCAGATATCTAT` has a fluorescence intensity of 80 a.u.
With `CATACCCAACCTTGCTCTGTGGGTGAAGATATTTGT` the fluorescence intensity was 80.2 a.u.
For `AAATCTTTCCTCAACCGCGTGTTTTCGTCTTTACCA`, the fluorescence intensity was 81.4 a.u.
With `CCGTTCACCACTTTGCATGTGCTCTCAAGTACGGCC` the fluorescence intensity was 146 a.u.
`CATACCCAACCTTGTCCTGTGGGTGAAGATATTTGT` has a fluorescence intensity of 62.7 a.u.
The fluorescence intensity of `AATCCAAGTTTCGGCCACGATGGCAGCAGCCTATTG` is reported as 58.9 a.u.
With `TGCGCGTTTTTCTGGGACGTGCTAACAAACGAGAAA` the fluorescence intensity was 81.5 a.u.
For `CTTCTGTAAATTTGATCCGTGGGTGGACGCGCCCCG`, the fluorescence intensity was 80.7 a.u.
With `TGCGCAACAACTTGTATTGTGGGTGTATGTCTAGAA` the fluorescence intensity was 60.2 a.u.
With `CTCTGCGGTGGCAGCAACGTGACGGTATAGTGTGTA` the fluorescence intensity was 371 a.u.
`TTCTGAATGGTGTTGGTCGTGGCCGTACCGATTTAT` has a fluorescence intensity of 70 a.u.
